{"data": "Assay results from different studies", "target": "Carbonic anhydrase 2 (CA2, Homo sapiens, UniProt P00918)", "note": "Each line is one published result; not all experiments were run side by side. pIC50, pKd, pKi: −log10 of the molar value."}
{"SMILES": "CN(C)c1ccc2c(c1)C(=O)N(c1ccc(S(N)(=O)=O)cc1)C2=O", "observed": "binding", "endpoint": "pKd", "value": 6.77}
{"SMILES": "C[C@@]1(C(=O)O)[C@@H](O)CC[C@]2(C)c3cc4c(cc3CC[C@@H]12)[nH]c1ccc(S(=O)(=O)n2c3ccccc3c3cc5c(cc32)CC[C@H]2[C@](C)(C(=O)O)[C@@H](O)CC[C@]52C)cc14", "observed": "enzyme activity", "mode": "inhibitor", "technique": "absorbance", "endpoint": "pIC50", "value": 5.74}
{"SMILES": "CCCCCCC1CCCC(=O)O1 (stereo not shown)", "observed": "enzyme activity", "mode": "inhibitor", "technique": "stopped-flow", "endpoint": "pKi", "value": 4.28}
{"SMILES": "Cc1c(Cl)c(=O)oc2cc(OCCCCCCSC#N)ccc12", "observed": "enzyme activity", "mode": "inhibitor", "technique": "stopped-flow", "endpoint": "pKi", "value": "< 4.00"}
{"SMILES": "NS(=O)(=O)c1ccc(CCN2C(=O)c3ccc(N4CCOCC4)cc3C2=O)cc1", "observed": "binding", "endpoint": "pKd", "value": 6.60}
{"SMILES": "CC[C@H](C)[C@H](N)C(=O)NS(=O)(=O)CC(=O)N[C@@]1(C(=O)O)[C@@H](OC(=O)[C@@H](N)[C@@H](C)c2ccccc2)C[C@H]2C(C(N)=O)=CN(C)C[C@H]21", "observed": "enzyme activity", "mode": "inhibitor", "technique": "absorbance", "endpoint": "pIC50", "value": 5.85}
{"SMILES": "CCCCCCCCCCCC(=O)NC1CCOC1=O (stereo not shown)", "observed": "enzyme activity", "mode": "inhibitor", "technique": "stopped-flow", "endpoint": "pKi", "value": 4.18}
{"SMILES": "CN(C)c1ccc2c(c1)C(=O)N(Cc1ccc(S(N)(=O)=O)cc1)C2=O", "observed": "binding", "endpoint": "pKd", "value": 6.82}
{"SMILES": "CCCCC1CCC(=O)O1 (stereo not shown)", "observed": "enzyme activity", "mode": "inhibitor", "technique": "stopped-flow", "endpoint": "pKi", "value": 4.11}
{"SMILES": "N#CSCCCCCCOc1ccc2c(-c3ccccc3)cc(=O)oc2c1", "observed": "enzyme activity", "mode": "inhibitor", "technique": "stopped-flow", "endpoint": "pKi", "value": "< 4.00"}
